# Measurements pooled from the literature.
# Each line is one published result; not all experiments were run side by side.
# Sequence of UniProt P07948 (whole entry, looked up): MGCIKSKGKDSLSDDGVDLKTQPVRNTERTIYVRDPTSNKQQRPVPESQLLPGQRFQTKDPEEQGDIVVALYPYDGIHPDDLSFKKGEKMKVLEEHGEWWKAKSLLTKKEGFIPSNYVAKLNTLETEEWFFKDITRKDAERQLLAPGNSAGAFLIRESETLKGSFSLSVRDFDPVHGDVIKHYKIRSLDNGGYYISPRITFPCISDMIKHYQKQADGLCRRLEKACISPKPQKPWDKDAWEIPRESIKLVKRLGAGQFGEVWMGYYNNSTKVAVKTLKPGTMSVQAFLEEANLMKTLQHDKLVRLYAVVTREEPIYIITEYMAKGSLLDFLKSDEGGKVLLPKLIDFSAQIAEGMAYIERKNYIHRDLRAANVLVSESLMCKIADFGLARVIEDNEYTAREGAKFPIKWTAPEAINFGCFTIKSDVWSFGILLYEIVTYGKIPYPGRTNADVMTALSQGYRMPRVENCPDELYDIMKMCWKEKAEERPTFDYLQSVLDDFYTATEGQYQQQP
Compound,tested on,assay,setting,quantity,value
COc1cc(C)c(-c2c(C)cc(OC)c3c(=O)cc(-c4ccc(Br)cc4)oc23)c2oc(-c3ccc(Br)cc3)cc(=O)c12,HS27,"cell growth or viability, MTT",24 h,CC50,> 200 µM
Fc1cc(F)c(-c2c(Cl)nc(-c3cccs3)nc2NC2CCC2)c(F)c1,HEK293,"cell growth or viability, resazurin",48 h,CC50,> 50 µM
Nc1nc2c(ncn2COCCO)c(=O)[nH]1,ARPE-19,"cell growth or viability, neutral red",,CC50,> 100 µM
CC1=C(Cc2cn(CCO)nn2)C(=O)c2ccccc2C1=O,L6,cell growth or viability,,CC50,17.6 µM
COC(CNC1=CC2=NCCc3c[nH]c(c32)C1=O)c1c[nH]c2ccccc12 (stereo not drawn),HeLa,"cell growth or viability, MTT",72 h,CC50,2 µM
CC1(F)CN(C(=O)Cn2c(=O)c(C(=O)NCc3ccc(Cl)cc3)cc3nc(N4CCNC4=O)cnc32)C1,MRC5,"cell growth or viability, CCK-8",,CC50,> 40 µM
CSc1ccc(C(=O)/C=C/c2cc(C)c(OC(C)(C)C(=O)O)c(C)c2)cc1,LX-2,"cell growth or viability, ATP luminescence","48 h, serum-free",CC50,4.19 µM
O=C1c2[nH]cc3c2C(=NCC3)c2c(-c3ccc(O)cc3)c[nH]c21,HeLa,"cell growth or viability, MTT",72 h,CC50,0.6 µM
Fc1cc(F)c(-c2c(Cl)nc(-c3cccs3)nc2N2CCCCCC2)c(F)c1,HEK293,"cell growth or viability, resazurin",48 h,CC50,24 µM
COc1cc(/C=C/c2cc(/C=C/c3ccc(O)c(OC)c3)n(-c3cccc([N+](=O)[O-])c3)n2)ccc1O,WRL68,"cell growth or viability, MTT",48 h,CC50,> 99 µM
COC(=O)c1c(C)ncn1CC(c1cn(C)c2ccccc12)c1cn(C)c2ccccc12,DH82,"cell growth or viability, MTS",24 h,CC50,> 20 µM
CCC[C@H](CC)Oc1ccc(C(C)(C)C)cc1NC(=O)c1nnn(-c2cc(OC)ccc2OC)c1C,SNU-C4,"cell growth or viability, ATP luminescence",24 h,CC50,> 30 µM
Fc1cc(F)c(-c2c(Cl)nc(-c3cccs3)nc2NCc2cccnc2)c(F)c1,HEK293,"cell growth or viability, resazurin",48 h,CC50,16.9 µM
CC1(F)CN(C(=O)Cn2c(=O)c(C(=O)NCc3ccc(Cl)cc3)cc3nc(N4CCCC4=O)cnc32)C1,MRC5,cell growth or viability,,CC50,15.8 µM
COc1cc(OC)c2c(=O)cc(-c3ccccc3Br)oc2c1-c1c(OC)cc(OC)c2c(=O)cc(-c3ccccc3Br)oc12,HS27,"cell growth or viability, MTT",24 h,CC50,> 200 µM
NCCOCC(=O)NC1CCN(S(=O)(=O)c2cc(C(=O)Nc3cc(F)c(F)c(F)c3)ccc2F)CC1,HepG2.2.15,"cell growth or viability, CCK-8",6 days,CC50,> 100 µM
CN1CCN(c2cnc3c(cc(C(=O)NCc4ccc(Cl)cc4)c(=O)n3CC(=O)N3CC(C)(F)C3)n2)C1=O,MRC5,"cell growth or viability, CCK-8",,CC50,> 40 µM
CNc1ncc2c(/C=C/C(=O)N3CCC(OC)CC3)nn(Cc3cccc(C(F)(F)F)c3)c2n1,"LYN (Homo sapiens, UniProt P07948)","enzyme activity, inhibitor, radiometric",1 µM,remaining activity,81%
CC1=C(Cn2cc(CBr)nn2)C(=O)c2ccccc2C1=O,L6,cell growth or viability,,CC50,18.2 µM
CC1(CNc2nc(-c3cccs3)nc(Cl)c2-c2c(F)cc(N)cc2F)COC1,HEK293,"cell growth or viability, resazurin",48 h,CC50,37.3 µM
O=C1C(NCCc2c[nH]c3ccccc23)=CC2=NCCc3c[nH]c1c32,HeLa,"cell growth or viability, MTT",72 h,CC50,1.25 µM
CCC[C@H](CC)Oc1ccc(C(=O)OC)cc1NC(=O)c1nnn(-c2cc(OC)ccc2OC)c1C,SNU-C4,"cell growth or viability, ATP luminescence",24 h,CC50,> 30 µM
COc1cc(/C=C/C(=O)/C=C/c2ccc(O)c(OC)c2)ccc1O,WRL68,"cell growth or viability, MTT",48 h,CC50,3.93 µM
Nc1cc(F)c(-c2c(Cl)nc(-c3cccs3)nc2NCC2CCC2)c(F)c1,HEK293,"cell growth or viability, resazurin",48 h,CC50,33.9 µM
COc1cc(C)cc2oc(-c3ccc(C(F)(F)F)cc3)cc(=O)c12,HS27,"cell growth or viability, MTT",24 h,CC50,> 200 µM
COC1=CC2=[N+](C)CCc3c[nH]c(c32)C1=O,HeLa,"cell growth or viability, MTT",72 h,CC50,5 µM
CNCCN1CCN(c2cnc3c(cc(C(=O)NCc4ccc(Cl)cc4)c(=O)n3CC(=O)N3CC(C)(F)C3)n2)C1=O,MRC5,cell growth or viability,,CC50,23.3 µM
Cc1cc(O)c2c(=O)cc(-c3ccc(N(C)C)cc3)oc2c1-c1c(C)cc(O)c2c(=O)cc(-c3ccc(N(C)C)cc3)oc12,HS27,"cell growth or viability, MTT",24 h,CC50,> 200 µM
Nc1nc(O)c2ncn(COC(CO)CO)c2n1,MRC5,"cell growth or viability, CCK-8",,CC50,> 100 µM
COc1cc(/C=C2\CCC/C(=C\c3ccc(O)c(OC)c3)C2=O)ccc1O,WRL68,"cell growth or viability, MTT",48 h,CC50,6.71 µM
CC1(CNc2nc(-c3cccs3)nc(Cl)c2-c2c(F)cc(F)cc2F)COC1,HEK293,"cell growth or viability, resazurin",48 h,CC50,5.55 µM
COc1cc(C)c(-c2c(C)cc(OC)c3c(=O)cc(-c4ccc(C(F)(F)F)cc4)oc23)c2oc(-c3ccc(C(F)(F)F)cc3)cc(=O)c12,HS27,"cell growth or viability, MTT",24 h,CC50,> 200 µM
Fc1cc(F)c(-c2c(Cl)nc(-c3cccs3)nc2NCc2ccccc2)c(F)c1,HEK293,"cell growth or viability, resazurin",48 h,CC50,> 50 µM
N=C(N)c1ccc(OCCCCCOc2ccc(C(=N)N)cc2)cc1,DH82,"cell growth or viability, MTS",24 h,CC50,> 20 µM
CC1=C(Cn2ccnn2)C(=O)c2ccccc2C1=O,L6,cell growth or viability,,CC50,6.24 µM
CC(C)[C@@H](C)Nc1nc(-c2cccs2)nc(Cl)c1-c1cc(F)cc(F)c1,HEK293,"cell growth or viability, resazurin",48 h,CC50,> 50 µM
CC1(F)CN(C(=O)Cn2c(=O)c(C(=O)NCc3ccc(Cl)cc3)cc3nc(N4CCOC4=O)cnc32)C1,MRC5,"cell growth or viability, CCK-8",,CC50,33 µM
COc1cc(C)c(-c2c(C)cc(OC)c3c(=O)cc(-c4ccc(N(C)C)cc4)oc23)c2oc(-c3ccc(N(C)C)cc3)cc(=O)c12,HS27,"cell growth or viability, MTT",24 h,CC50,> 180 µM
CN(C)C(=O)CN1CCN(c2cnc3c(cc(C(=O)NCc4ccc(Cl)cc4)c(=O)n3CC(=O)N3CC(C)(F)C3)n2)C1=O,MRC5,"cell growth or viability, CCK-8",,CC50,> 40 µM
COc1cc(/C=C/C(=O)C(=Cc2cccc(O)c2)C(=O)/C=C/c2ccc(O)c(OC)c2)ccc1O,WRL68,"cell growth or viability, MTT",48 h,CC50,0.19 µM
COc1cnc2c(cc(C(=O)NCc3ccc(Cl)cc3)c(=O)n2CC(=O)N2CC(C)(F)C2)n1,MRC5,"cell growth or viability, CCK-8",,CC50,> 40 µM
CC1=C(Cn2cc(COC3COC3)nn2)C(=O)c2ccccc2C1=O,L6,cell growth or viability,,CC50,7.1 µM
